Published values pooled from the literature.
Compare with care: the assays were run in different laboratories.
Sequence of UniProt P07333 (whole entry, unmodified, looked up): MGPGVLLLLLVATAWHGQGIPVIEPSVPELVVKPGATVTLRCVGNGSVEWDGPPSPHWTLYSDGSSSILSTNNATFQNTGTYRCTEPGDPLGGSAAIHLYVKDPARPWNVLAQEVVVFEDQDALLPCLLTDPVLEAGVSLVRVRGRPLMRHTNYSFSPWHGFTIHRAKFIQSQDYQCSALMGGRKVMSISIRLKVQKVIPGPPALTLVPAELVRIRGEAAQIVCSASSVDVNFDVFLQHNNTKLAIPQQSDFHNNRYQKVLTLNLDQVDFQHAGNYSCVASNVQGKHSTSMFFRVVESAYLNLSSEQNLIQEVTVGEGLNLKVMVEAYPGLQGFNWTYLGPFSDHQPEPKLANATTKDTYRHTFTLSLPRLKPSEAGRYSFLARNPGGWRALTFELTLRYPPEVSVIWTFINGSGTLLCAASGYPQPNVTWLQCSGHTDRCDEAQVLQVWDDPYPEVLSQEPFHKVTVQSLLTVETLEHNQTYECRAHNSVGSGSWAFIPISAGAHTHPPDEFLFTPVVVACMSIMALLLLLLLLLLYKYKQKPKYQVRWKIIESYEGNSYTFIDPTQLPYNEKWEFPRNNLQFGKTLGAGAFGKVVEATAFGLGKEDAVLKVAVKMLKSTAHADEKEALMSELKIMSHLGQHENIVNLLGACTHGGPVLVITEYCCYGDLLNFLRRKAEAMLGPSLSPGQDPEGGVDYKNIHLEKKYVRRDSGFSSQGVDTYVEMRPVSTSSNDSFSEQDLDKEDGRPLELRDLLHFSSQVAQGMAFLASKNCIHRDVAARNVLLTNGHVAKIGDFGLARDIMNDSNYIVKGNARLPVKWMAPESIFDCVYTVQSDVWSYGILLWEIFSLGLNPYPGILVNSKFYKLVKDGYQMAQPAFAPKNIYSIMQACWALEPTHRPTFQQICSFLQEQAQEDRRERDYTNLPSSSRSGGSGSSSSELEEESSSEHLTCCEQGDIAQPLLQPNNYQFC
Sequence of UniProt P23458 (whole entry, looked up): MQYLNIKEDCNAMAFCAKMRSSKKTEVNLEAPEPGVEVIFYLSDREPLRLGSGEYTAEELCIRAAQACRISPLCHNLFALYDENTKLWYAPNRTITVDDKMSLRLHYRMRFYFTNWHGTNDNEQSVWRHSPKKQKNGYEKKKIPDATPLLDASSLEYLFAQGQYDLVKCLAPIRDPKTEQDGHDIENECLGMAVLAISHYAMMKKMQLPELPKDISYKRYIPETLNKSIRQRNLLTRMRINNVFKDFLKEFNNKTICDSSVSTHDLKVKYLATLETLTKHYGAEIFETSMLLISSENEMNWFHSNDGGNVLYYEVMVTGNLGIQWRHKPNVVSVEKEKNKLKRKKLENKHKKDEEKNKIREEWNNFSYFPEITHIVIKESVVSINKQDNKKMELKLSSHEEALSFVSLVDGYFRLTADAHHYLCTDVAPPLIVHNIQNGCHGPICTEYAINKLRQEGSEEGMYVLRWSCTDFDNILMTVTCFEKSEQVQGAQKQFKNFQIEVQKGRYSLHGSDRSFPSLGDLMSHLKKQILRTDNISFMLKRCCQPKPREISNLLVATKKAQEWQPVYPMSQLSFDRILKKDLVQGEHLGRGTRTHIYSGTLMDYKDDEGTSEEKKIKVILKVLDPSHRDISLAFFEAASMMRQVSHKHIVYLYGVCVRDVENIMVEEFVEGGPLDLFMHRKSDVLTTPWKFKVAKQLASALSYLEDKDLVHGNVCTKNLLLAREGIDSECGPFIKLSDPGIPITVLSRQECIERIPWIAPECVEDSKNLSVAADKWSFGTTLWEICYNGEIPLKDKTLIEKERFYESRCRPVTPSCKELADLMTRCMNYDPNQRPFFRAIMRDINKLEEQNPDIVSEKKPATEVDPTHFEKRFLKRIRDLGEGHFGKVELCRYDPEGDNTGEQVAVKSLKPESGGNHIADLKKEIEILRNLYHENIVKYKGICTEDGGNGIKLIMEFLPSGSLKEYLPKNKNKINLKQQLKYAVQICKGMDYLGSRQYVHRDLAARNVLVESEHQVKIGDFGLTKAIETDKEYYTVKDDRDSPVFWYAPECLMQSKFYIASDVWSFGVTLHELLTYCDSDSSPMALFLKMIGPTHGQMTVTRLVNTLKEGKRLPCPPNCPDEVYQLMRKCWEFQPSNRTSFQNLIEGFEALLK

CNc1ncc2c(/C=C/C(=O)N3CCC(OC)CC3)nn(Cc3cccc(C(F)(F)F)c3)c2n1 — remaining activity (Tyrosine-protein kinase JAK1 (JAK1, Homo sapiens, UniProt P23458); enzyme activity, inhibitor, radiometric; 1 µM): 100%
COc1cc(-c2cncc3c2CN(C)Cc2cc(N4CCNCC4)ccc2-3)cc(OC)c1OC — remaining activity (Macrophage colony-stimulating factor 1 receptor (CSF1R, Homo sapiens, UniProt P07333, Y969C); enzyme activity, inhibitor; 1 µM): 87%
C=CC(=O)N1CCC(COCC(=O)N2CCN(c3nc(-c4cnc(N)nc4C(F)F)nc(N4CCOC[C@@H]4C)n3)CC2)CC1 — remaining binding (Receptor-type tyrosine-protein kinase FLT3 (FLT3, Homo sapiens, UniProt P36888, K663Q); binding, competition with immobilised ligand; 1 µM): 61%
Cc1cc([C@@H](C)Nc2ccccc2C(=O)O)c2nc(N3CCC(F)(F)CC3)c(C#N)c(=O)n2c1 — remaining binding (Macrophage colony-stimulating factor 1 receptor (CSF1R, Homo sapiens, UniProt P07333); binding, competition with immobilised ligand; 10 µM): 94%

For quick reference, copied from above:
COc1cc(-c2cncc3c2CN(C)Cc2cc(N4CCNCC4)ccc2-3)cc(OC)c1OC — remaining activity (Macrophage colony-stimulating factor 1 receptor (CSF1R, Homo sapiens, UniProt P07333, Y969C); enzyme activity, inhibitor; 1 µM): 87%
